Measurements collected from several papers.
Each numbered part is a random draw from the data of one study; scales do not carry over between parts. Changes are numbered by the printed parent chain.

Set 1
Target: POU domain, class 5, transcription factor 1, POU domain (Pou5f1, Mus musculus, UniProt P20263, residues 131-289)
Chain of UniProt P20263 (131-289, looked up): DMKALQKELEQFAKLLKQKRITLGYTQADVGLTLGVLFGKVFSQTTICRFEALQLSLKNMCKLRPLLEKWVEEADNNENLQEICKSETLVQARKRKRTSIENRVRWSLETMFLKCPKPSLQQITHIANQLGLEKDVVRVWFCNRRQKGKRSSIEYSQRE
Method: Spec-seq
Form: double-stranded DNA, one strand shown
Sample: in vitro
Tested at: not given
Notes: whole probe, mean of replicates
Relative to: not given
Reading: lower = stronger binding
Constant ends, left off below: GAGTCGTCTCGTCAGCAC … CCGTAGAGCACTCAGGTC
| Oligonucleotide | relative binding energy [ln ratio] |
| --- | --- |
| ATGCCCTA | 0.358 |
| ATCACCAT | -0.701 |
| ATCCCGAT | 0.784 |
| GTTCTAAT | 0.763 |
| TCTGTAAT | 0.66 |
| ATGACAAT | 0.34 |
| ATCAGAAT | -0.412 |
| ATGCACCA | 0.0437 |

Set 2
Target: CCNF, cyclin fold, Cln2 fusion (human)
Method: yeast growth competition, sequencing
Sample: yeast
Notes: strong parent motif
Relative to: not given
Reading: higher = stronger binding
Starting sequence: viral docking peptide; YKVKRRLVFGADD
| Change | normalised enrichment score |
| --- | --- |
| R6M | 9.31 |
| L7M | 2.07 |
| R6H | 8.43 |
| R6Q | 8.17 |
| V3T | 9.07 |
| K4A | 8.21 |
| D12H | 8.73 |
| D12M | 9.12 |
| V8F | 9.98 |
| K4M | 8.78 |
| V3M | 8.34 |
| V3D | 3.19 |
| R5T | 5.03 |
| R5V | 5.28 |
| R6C | 8.32 |
| D12G | 9.11 |

Set 3
Target: inorganic phosphate, free oxyanion
Method: microfluidic competitive inhibition
Sample: in vitro, cell-free expressed
Tested at: not given
Notes: derived from inhibition constants, unchanged parent 615000 nM
Reading: lower = stronger binding
Starting sequence: PafA, mature enzyme, eGFP fusion (Elizabethkingia meningoseptica, UniProt Q9KJX5); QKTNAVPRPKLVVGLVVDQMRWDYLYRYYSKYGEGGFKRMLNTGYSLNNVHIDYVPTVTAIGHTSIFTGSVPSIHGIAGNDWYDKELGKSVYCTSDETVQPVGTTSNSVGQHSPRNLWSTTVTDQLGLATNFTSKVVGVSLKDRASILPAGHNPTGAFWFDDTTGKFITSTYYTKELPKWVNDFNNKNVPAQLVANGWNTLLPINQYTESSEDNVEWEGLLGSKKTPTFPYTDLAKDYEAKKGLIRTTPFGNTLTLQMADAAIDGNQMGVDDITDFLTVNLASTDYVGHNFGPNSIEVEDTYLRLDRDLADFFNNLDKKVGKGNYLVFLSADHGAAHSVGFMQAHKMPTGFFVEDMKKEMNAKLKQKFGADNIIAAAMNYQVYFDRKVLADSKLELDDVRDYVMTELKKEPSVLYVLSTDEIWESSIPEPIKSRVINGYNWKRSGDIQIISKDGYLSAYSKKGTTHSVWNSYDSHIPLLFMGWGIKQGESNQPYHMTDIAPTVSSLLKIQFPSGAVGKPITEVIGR
| Change | phosphate dissociation constant |
| --- | --- |
| I499G | 347 µM |
| K518G | 471 µM |
| T105V | 648 µM |
| G69A | 657 µM |
| K318V | 652 µM |
| K242G | 460 µM |

Set 4
Target: Histone acetyltransferase KAT6A, winged helix 1, GST fusion (KAT6A, Homo sapiens, UniProt Q92794, residues 1-85)
Method: protein binding microarray
Form: double-stranded DNA, one strand shown
Sample: in vitro
Tested at: not given
Notes: 8-mer, flanks averaged, mean of 2 arrays, mostly near background
Relative to: not given
Reading: higher = stronger binding
Construct (chain): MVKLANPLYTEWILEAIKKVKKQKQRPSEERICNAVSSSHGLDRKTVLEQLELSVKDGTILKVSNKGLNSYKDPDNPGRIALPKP
| Oligonucleotide | E-score |
| --- | --- |
| ATCTGTTG | -0.312 |
| ACCAATAT | -0.217 |
| CTGACGGC | 0.354 |
| ACTTTGAT | -0.266 |
| CTGCTGTA | -0.171 |
| CAAAATGG | -0.0785 |
| CAAGGGAC | -0.148 |
| AACAGCAC | -0.0461 |

For quick reference, copied from above (set 2):
| Change | normalised enrichment score |
| --- | --- |
| V3M | 8.34 |
| L7M | 2.07 |
| V3T | 9.07 |
| D12G | 9.11 |
| R5T | 5.03 |
